Experimental data pooled from the literature.
Protocols differ between the studies behind these lines. Numbers after ± are the reported error. Values after ≈ are worked out from the molar mass of the structure shown.

Structure (SMILES)	test	system	conditions	scale	quantity	value
COc1cc2c(cc1OC)[C@@H]1Cc3ccc(OC)c(OC)c3CN1CC2		rat plasma QC sample	2 ng/mL nominal, 15 days, -80 °C, low QC level storage stability		measured concentration	1.98 ± 0.1 ng/mL
CC1=C2C[C@H]3[C@@H](CC[C@@H]4C[C@H](NS(C)(=O)=O)CC[C@@]43C)[C@@H]2CC[C@@]2(C1)O[C@@H]1C[C@H](C)CN[C@H]1[C@H]2C		patients, plasma	oral, 20 mg daily, day 22, cycle 1		AUC(0-24)	180 ng·h/mL
CCCCCCCC(=O)OC[C@H](NC(=O)[C@H](CO)NC(=O)CN)C(=O)N[C@H](C(=O)N[C@@H](CC(C)C)C(=O)N[C@@H](CO)C(=O)N1CCC[C@H]1C(=O)N[C@@H](CCC(=O)O)C(=O)N[C@@H](Cc1c[nH]cn1)C(=O)N[C@@H](CCC(N)=O)C(=O)N[C@@H](CCCNC(=N)N)C(=O)N[C@H](C(=O)N[C@@H](CCC(N)=O)C(=O)N[C@@H](CCC(N)=O)C(=O)N[C@@H](CCCNC(=N)N)C(=O)N[C@@H](CCCCN)C(=O)N[C@@H](CCC(=O)O)C(=O)N[C@@H](CO)C(=O)N[C@@H](CCCCN)C(=O)N[C@@H](CCCCN)C(=O)N1CCC[C@H]1C(=O)N1CCC[C@H]1C(=O)N[C@@H](C)C(=O)N[C@@H](CCCCN)C(=O)N[C@@H](CC(C)C)C(=O)N[C@@H](CCC(N)=O)C(=O)N1CCC[C@H]1C(=O)N[C@@H](CCCNC(=N)N)C(=O)O)C(C)C)[C@H](c1ccccc1)c1c[nH]c2ccccc12	RP-HPLC Jupiter Proteo		acetonitrile/water TFA gradient		HPLC retention	40.6 %B
Cc1nc2cccc(OCC(C)(C)C(=O)NC(C)C)c2c(N)c1C(=O)O		female Sprague-Dawley rat, plasma	oral, 100 mg/kg, single dose		AUC(0-t)	341 ng·h/mL
Cc1[nH]c(=O)c(CNC(=O)c2cn[nH]c2)c2c1CCCC2	U-HPLC	20% DMSO in water			kinetic solubility	246 µg/mL (≈ 858 µM)
CO[C@@H]1[C@H](O)[C@@H](CO)O[C@H]1n1ccc(=O)[nH]c1=O		male CD-1 mice, plasma	intravenous, 1 mg/kg		terminal half-life	~5 h
O=C(O)[C@H](c1ccccc1Cl)N1CCc2sccc2C1	HPLC-MS/MS	feline EDTA plasma	12 h, -20 °C, storage stability		deviation from nominal	10%
NC(=O)OCC(COC(N)=O)c1ccccc1		Sprague-Dawley rat, male, liver	oral, 1920 mg/kg, 24 h, single high dose	direction not given	hepatocyte vacuolization score	0
CCCSc1nc(N[C@@H]2C[C@H]2c2ccc(F)c(F)c2)c2nnn([C@@H]3C[C@H](OCCO)[C@@H](O)[C@H]3O)c2n1		male Wistar Han rats, plasma	oral, 20 mg/kg/day, week 52, carcinogenicity study		AUC	24.7 µM·h
CN1CC[C@@H](NC(=O)Nc2ccc(C#N)cc2)C[C@@H]1c1nc2ccccc2[nH]1		severe hepatic impairment, plasma	oral, 100 mg single dose, fasted, arithmetic mean		AUC(0-t), unbound	1040 ± 379 ng·h/mL
CNC(=O)c1cc(Oc2ccc(NC(=O)Nc3ccc(Cl)c(C(F)(F)F)c3)c(F)c2)ccn1		metastatic colorectal cancer patients, plasma	oral, 120 mg once daily, 5 days, together with: esomeprazole 40 mg 3 h before		AUC(0-24h)	53600 ng·h/mL
Cc1ccc(NC(=O)c2ccc(CN3CCN(C)CC3)cc2)cc1Nc1nccc(-c2cncc(-c3oncc3C)c2)n1		Parkinson's disease patients, plasma	oral, 50.0 mg once daily, day 1, 7-day dosing, mean		dose-normalised Cmax	34.3 ng/mL/mg
COCCCC/C(=N\OCCN)c1ccc(C(F)(F)F)cc1		healthy male human	oral, 50 mg, dry lip, mild, not drug-related		subjects with adverse events	7.1%
Cc1cc(C)c(/C=C2\C(=O)Nc3ccccc32)[nH]1		male Sprague-Dawley rat, hypoxic pulmonary hypertension	subcutaneous, 20 mg/kg, 28 days post-hypoxia, 3 weeks hypoxia		right ventricular systolic pressure	64.9 ± 8.4 mmHg
O=C(CCCCCCC(=O)Nc1ccccc1)NO		patients, serum	oral, 800 mg, cycle 1 day 2, together with: flavopiridol 30+30 mg/m2		AUC(0-7 h)	24.4 µM·h
COc1cc(OC)c(/C=C/S(=O)(=O)Cc2ccc(OC)c(NCC(=O)O)c2)c(OC)c1		cancer patients, phase I, plasma	oral, 280 mg twice daily, day 21 cycle 1		Vss/F	1060 ± 603 L
C=CC[C@@H]1/C=C(\C)C[C@H](C)C[C@H](OC)[C@H]2O[C@@](O)(C(=O)C(=O)N3CCCC[C@H]3C(=O)O[C@H](/C(C)=C/[C@@H]3CC[C@@H](O)[C@H](OC)C3)[C@H](C)[C@@H](O)CC1=O)[C@H](C)C[C@@H]2OC	shake flask	10% w/v nicotinamide solution	3 days, 37 °C		solubility	39.3 ± 1.86 µg/mL (≈ 48.9 µM)
O=C1CN(/N=C/c2ccc(-c3ccc([N+](=O)[O-])cc3)o2)C(O)=N1		Sprague-Dawley rat, male, liver	oral, 100 mg/kg, 24 h, single low dose	direction not given	hepatocyte vacuolization score	0
FC(F)(F)c1cccc(Nc2ncnc3ccccc23)c1	potentiometric, optimised protocol	octanol/water, 0.15 M KCl	neutral species		logP	4.1
COC(=O)N[C@H](C(=O)N[C@@H](Cc1ccccc1)[C@@H](O)CN(Cc1ccc(-c2ccccn2)cc1)NC(=O)[C@@H](NC(=O)OC)C(C)(C)C)C(C)(C)C	modified PAMPA Franz cell	phosphate buffer with HPMCAS	stock 5 mg/mL, 3 h, 37 °C, 193 nm system, 300 rpm, together with: 3% BSA receiver		free drug permeability	56 ± 2 ×10⁻⁶ cm/s
COc1ccc(-c2cc(=O)c3c(OC)c(OC)c(OC)cc3o2)cc1OC		C57BL/6 mouse, male, small intestine	oral, 1% w/w in diet, 6 weeks, orange peel extract diet	baseline: content in orange peel	tissue to peel content ratio	4.61%
C#C[C@]1(CO)O[C@@H](n2cnc3c(N)nc(F)nc32)C[C@@H]1O		human, plasma	oral, 100 mg, single dose, fasted		AUC(0-t)	10.9 µM·h

Structure (SMILES)	test	system	conditions	scale	quantity	value
CCCC[C@H](NC(C)=O)C(=O)N[C@H]1CCC(=O)NC[C@@H](C(=O)N[C@@H](Cc2c[nH]c3ccccc23)C(N)=O)NC(=O)[C@H](CCCNC(=N)N)NC(=O)[C@@H](Cc2ccccc2)NC(=O)[C@H](Cc2c[nH]cn2)NC1=O		beagle dog, male, plasma	subcutaneous, 40.0 mg/kg daily, day 14		Cmax	850 ng/mL
CCOc1ccc(NC(=S)N(CCO)Cc2cc3cc(C)cc(C)c3[nH]c2=O)cc1		C57BL/6J mouse, plasma	intravenous, 3 mg/kg, together with: ABT 50 mg/kg oral pretreatment 2 h before		AUC(0-24 h)	12600 ng·h/mL
CNCc1ccc(-c2[nH]c3cc(F)cc4c3c2CCNC4=O)cc1		human patients, plasma	oral, 160 mg once daily, day 1, single dose, arithmetic mean		half-life	19.9 h
C[C@]12CC[C@@H]3c4ccc(O)cc4CC[C@H]3[C@@H]1C[C@@H](O)[C@@H]2O	GC-MS	breast cancer women on NSAI, serum	vaginal, 0.03 mg daily, 3 h, day 28		mean serum concentration	0.00248 ng/mL
CCN(CC)CCNC(=O)c1c(C)[nH]c(/C=C2\C(=O)Nc3ccc(F)cc32)c1C		human, plasma	oral, 20 mg/m2, day 14		maximum trough plasma concentration	58.6 ng/mL
CCCC[C@@H]1NC(=O)[C@@H](NC(=O)[C@H](CCC(=O)O)NC(=O)CNC(=O)CN2CCN(CC(=O)O)CCN(CC(=O)O)CCN(CC(=O)O)CC2)CCCCNC(=O)C[C@@H](C(N)=O)NC(=O)[C@H](C(C)C)NC(=O)[C@@H]2CCCN2C(=O)[C@H](CCCNC(=N)N)NC(=O)CNC(=O)[C@H](Cc2c[nH]c3ccccc23)NC(=O)[C@H](CCCNC(=N)N)NC(=O)[C@@H](Cc2ccccc2)NC(=O)[C@H](Cc2c[nH]cn2)NC(=O)[C@H](CCC(=O)O)NC1=O [indium-111 labelled]		C57 mice, B16/F10 lung metastatic melanoma, bone	intravenous, 0.037 MBq, 24 h		tissue uptake	0.03 ± 0.01 %ID/g
CC(NC(C)(C)C)C(=O)c1cccc(Cl)c1 (centres unmarked)	dual placental perfusion	fetal circuit perfusate	150 ng/mL, 4 h	baseline: initial maternal	fetal concentration	24 ± 3%
CC[C@H](C)[C@@H]1NC(=O)[C@H](Cc2ccc(O)cc2)NC(=O)[C@@H](N)CSSC[C@@H](C(=O)N2CCC[C@H]2C(=O)N[C@@H](CC(C)C)C(=O)NCC(N)=O)NC(=O)[C@H](CC(N)=O)NC(=O)[C@H](CCC(N)=O)NC1=O	ELISA	C57BL/6J male mice, wild type, plasma	intraperitoneal, 12 µg total, incremental area over baseline		AUC above baseline	9900 ± 2150 pg·30 min/sample
CC(C)C[C@@H]1NC(=O)CN(C)C(=O)[C@H](Cc2ccccc2)NCc2ccc([nH]2)CNC1=O		PAMPA	100 µM, 17 h, pH 6.4		Papp	1.45 ×10⁻⁶ cm/s
COc1ccc2nc([S@@+]([O-])Cc3ncc(C)c(OC)c3C)[nH]c2c1		human healthy	40 mg		adverse events	8%
CC(C)=CCC[C@](C)(O[C@@H]1O[C@H](CO)[C@@H](O)[C@H](O)[C@H]1O)[C@H]1CC[C@]2(C)[C@@H]1[C@H](O)C[C@@H]1[C@@]3(C)CC[C@H](O)C(C)(C)[C@@H]3[C@@H](O[C@@H]3O[C@H](CO)[C@@H](O)[C@H](O)[C@H]3O[C@@H]3O[C@@H](C)[C@H](O)[C@@H](O)[C@H]3O)C[C@]12C		rat, extracted plasma QC samples	0.5 µg/mL, 24 h, 15 °C, autosampler		post-preparative stability accuracy	95.7 ± 6%
COc1ccc2[nH]cc(CCNC(C)=O)c2c1		wild-type FVB/N lactating female mice, milk	intravenous, 10 mg/kg, 30 min		concentration	12000 ± 4610 ng/mL
CC(C)NC[C@@H](C(=O)N1CCN(c2ncnc3c2[C@H](C)C[C@H]3O)CC1)c1ccc(Cl)cc1		human, hepatic impairment Moderate (Child-Pugh), plasma	oral, 100 mg single, geometric mean		AUC(0-72)	555 ng·h/mL
CNCc1ccc(-c2[nH]c3cc(F)cc4c3c2CCNC4=O)cc1		human cancer patients, plasma	intravenous, 18 mg/m2, day 4, together with: temozolomide 200		volume of distribution	343 L
CN1CCN(c2ccc3nc(-c4c(N)c5c(F)cccc5[nH]c4=O)[nH]c3c2)CC1		NOD/SCID mice, male, blood or plasma	oral, 30 mg/kg once daily, day 1		terminal half-life	5.4 h
O=C(/C=C/c1cccc(S(=O)(=O)Nc2ccccc2)c1)NO		human mild liver dysfunction, plasma	intravenous, 400 mg/m^2, 30 min infusion, cycle 1 day -7		clearance	542 mL/min/m²
CCOc1ccc(Cc2cc([C@@H]3S[C@H](CO)[C@@H](O)[C@H](O)[C@H]3O)c(OC)cc2C)cc1		Wistar rat, male, small intestine	oral, dose not given, 1 h	baseline: small intestine over plasma concentration	tissue/plasma ratio	251 ± 178
CC[C@H](C)[C@H](NC(=O)CNC(=O)[C@H](Cc1ccccc1)NC(C)=O)C(=O)N[C@@]1(C)CCCC=CCCC[C@@](C)(C(=O)N[C@@H](CC(C)C)C(N)=O)NC(=O)[C@H](CC(N)=O)NC(=O)[C@H]([C@@H](C)O)NC(=O)[C@H](CC(C)C)NC1=O	circular dichroism	PBS with 50% trifluoroethanol	0.3 mg/mL, pH 7.4, 25 °C		α-helicity	20.6%
CS/C(S)=N/CCCC[S+](C)[O-] (racemic)	RT-PCR, measured: Cyp3a23/1	rat, liver	oral gavage, 200 mg/kg, dosed for four days	baseline: vehicle	mRNA fold change	2.28
Cn1c(-c2ccc(C(N)=O)cc2F)nnc1C(C)(C)Oc1c(F)cc(Cl)cc1F		young non-Japanese adults, plasma	oral, 50 mg single dose, day 1, high-dose multiple-dose study		Cmax range over subjects	341 to 632 ng/mL
N[C@@H](CC(=O)O)Cn1nnc(-c2ccc(Oc3ncc(Cl)cc3F)cc2)n1		male beagle dog, plasma	oral, 3 mg/kg, 24 h		concentration	5.3 ng/mL
C[C@H](Cn1cnc2c(N)ncnc21)OCP(=O)(O)O	population PK model, measured: tenofovir	human, HIV patients, plasma	oral, tenofovir alafenamide dosed, together with: P-gp inhibitors carvedilol or sertraline		clearance reduction	12%
